{"data": "Experimental data of several laboratories", "note": "A part holds a random share of what one study measured. Changes are numbered by the printed parent chain."}
{"data": "Set 1", "target": "CEP164, C-terminal peptide (human)", "technique": "DHFR complementation, deep sequencing", "medium": "yeast", "setting": "single substitutions, model-inferred values", "relative to": "wild type", "direction": "higher = weaker binding", "starting sequence": "PDZK1, PDZ domain 2 (human); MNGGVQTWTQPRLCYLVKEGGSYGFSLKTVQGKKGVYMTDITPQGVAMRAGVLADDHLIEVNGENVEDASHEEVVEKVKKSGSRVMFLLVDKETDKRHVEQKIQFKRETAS; partner HNRVKVYRF"}
{"Change": "H57F", "binding free energy change [kcal/mol]": 0.0973}
{"Change": "G82N", "binding free energy change [kcal/mol]": 0.691}
{"Change": "D56N", "binding free energy change [kcal/mol]": 0.459}
{"Change": "M1T", "binding free energy change [kcal/mol]": -0.121}
{"Change": "L88I", "binding free energy change [kcal/mol]": 0.704}
{"Change": "E72H", "binding free energy change [kcal/mol]": 0.549}
{"Change": "D56F", "binding free energy change [kcal/mol]": 0.626}
{"Change": "T9N", "binding free energy change [kcal/mol]": -0.0746}
{"Change": "T39I", "binding free energy change [kcal/mol]": 0.00436}
{"Change": "S111D", "binding free energy change [kcal/mol]": -0.0874}
{"Change": "Q101N", "binding free energy change [kcal/mol]": -0.123}
{"Change": "V52P", "binding free energy change [kcal/mol]": 1.04}
{"Change": "L27W", "binding free energy change [kcal/mol]": 0.563}
{"Change": "R97I", "binding free energy change [kcal/mol]": -0.213}
{"Change": "R84W", "binding free energy change [kcal/mol]": 0.297}
{"Change": "R84E", "binding free energy change [kcal/mol]": -0.0787}
{"Change": "R97T", "binding free energy change [kcal/mol]": -0.081}
{"data": "Set 2", "target": "RNA binding protein fox-1 homolog 2, RRM domain, GST-SBP tag (RBFOX2, Homo sapiens, UniProt O43251-10, residues 100-194)", "technique": "RNA Bind-n-Seq", "molecule type": "RNA", "medium": "in vitro", "concentration": "365 nM", "setting": "natural RNA segment, single round, ends assumed", "relative to": "no-protein control", "direction": "higher = stronger binding", "Residues (chain)": "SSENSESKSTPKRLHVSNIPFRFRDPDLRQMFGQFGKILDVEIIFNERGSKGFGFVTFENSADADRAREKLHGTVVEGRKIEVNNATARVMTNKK"}
{"Sequence": "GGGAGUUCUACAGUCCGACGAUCGGGGGUUAGGCCUGUGUGCCCCCUCAACCCAUAACUGCUGUCAAACAAAGCAAACCUUGUAAAGUGAUAGCCUCCUGGAUUUUUCCUCCCUGCCUUCUGACGCUCAGCAGUGGAAUUCUCGGGUGCCAA", "RBNS enrichment (R)": 0.869}
{"Sequence": "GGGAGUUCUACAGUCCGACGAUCGAGUCUCUCUGUCUUCUUCUUUCUUUGCCUGAUGCACAUCAAGGUAGAGUGCAUUCCGGUGUGGGUGCCAAUGAACUAGCUGCGAGCUGCUGUCAGAGUGGGAGCAGACUUGGAAUUCUCGGGUGCCAA", "RBNS enrichment (R)": 0.364}
{"Sequence": "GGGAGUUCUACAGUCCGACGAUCUUGAGCACCUUACAGAUAAAACUUUUUAUGGCAUCUCUUUCAUGGACAGUGAUAUUGAUCUUUUCACAAUGUACGUAGCCUCUAGAAUUUUGUACAUAUGUUUGCUCUUUUGGAAUUCUCGGGUGCCAA", "RBNS enrichment (R)": 0.634}
{"Sequence": "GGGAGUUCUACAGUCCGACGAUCGAGAAUGGAGGGGAACCAGGCGUCCUUGGAGGCAGCUUGGGAGGGUGACUGUGUAGUGUCACCCACAAGGGAGGCUAGGGCAAUGGAGCAGGCCACCAGCAGCAGCUGUGUGGAAUUCUCGGGUGCCAA", "RBNS enrichment (R)": 0.828}
{"Sequence": "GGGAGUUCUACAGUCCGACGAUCAAGCAGGGGCAGGUGAGCCACCAUGGACUGCAUAGCAAGCCAGCCUUGAAUAUAGUGAGUCCAGUCUCAAAAGAAAAAAAAAGGUAAGUGAGGCUGGAGAAAUGGCUUAGUGGAAUUCUCGGGUGCCAA", "RBNS enrichment (R)": 1.06}
{"Sequence": "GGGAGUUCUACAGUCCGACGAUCAUAUACAAGCCAAAGUGGCAUGUUUUGUGCAUUUGUAAAUGCUGUAUUGGAUAGACUAGCCCCCCCCCCGCCUUUGUUAAAUAGUAUGGCUGUGCUUAAAAGGUUGCAUAUGGAAUUCUCGGGUGCCAA", "RBNS enrichment (R)": 23.4}
{"Sequence": "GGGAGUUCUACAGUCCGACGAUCCCAAAGCACAGGUUUAUUCUAAAGAAAACUUUUACGACAAUACUUUCUGUAUUGUCUAGGUUAAGCCCACUUUAGGAGAUCCUUUACUCAUUAACUUAACCAACAAUGUGUGGAAUUCUCGGGUGCCAA", "RBNS enrichment (R)": 0.315}
{"Sequence": "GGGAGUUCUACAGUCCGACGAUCUUUAAGAGAGAGUCUCUGGCAAGACCCCCCUCAUCAGUUCUAAUCAUUUUAGAAGUAGACAGAAAAAAAUAUCUAAGCUCAGGUAAUACUGAAAAAGCCAAAAUGUUUUGUGGAAUUCUCGGGUGCCAA", "RBNS enrichment (R)": 0.425}
{"data": "Set 3", "target": "CCND3, cyclin fold, Cln2 fusion (human)", "technique": "yeast growth competition, sequencing", "medium": "yeast", "setting": "weak parent motif", "relative to": "not given", "direction": "higher = stronger binding", "starting sequence": "E2F7 docking peptide (human); SSAQRRLEIPSGG"}
{"Change": "SSAQRRLEIASGG [P10A]", "normalised enrichment score": 0.106}
{"Change": "SSAQRRLEAPSGG [I9A]", "normalised enrichment score": 0.112}
{"Change": "SSAQRRLEIPSGA [G13A]", "normalised enrichment score": 0.0561}
{"Change": "SSAQRRLELPSGG [I9L]", "normalised enrichment score": 0.0641}
{"Change": "SSAQARLEIPSGG [R5A]", "normalised enrichment score": 0.137}
{"Change": "SSAQRRLEFPSGG [I9F]", "normalised enrichment score": 0.569}
{"Change": "SAAQRRLEIPSGG [S2A]", "normalised enrichment score": 0.111}
{"Change": "SSAQKRLEFPSGG [R5K I9F]", "normalised enrichment score": -0.0932}
{"Change": "SSAQRRLAIPSGG [E8A]", "normalised enrichment score": 0.101}
{"data": "Set 4", "target": "ABI1, truncated, D143A, DHFR fusion (Arabidopsis thaliana)", "technique": "DHFR PCA, deep sequencing", "medium": "yeast", "setting": "methotrexate growth selection, single substitutions", "added": "(+)-ABA 710 µM", "relative to": "wild-type fitted maximum", "direction": "higher = stronger binding", "starting sequence": "PYL1, truncated, DHFR fusion (Arabidopsis thaliana); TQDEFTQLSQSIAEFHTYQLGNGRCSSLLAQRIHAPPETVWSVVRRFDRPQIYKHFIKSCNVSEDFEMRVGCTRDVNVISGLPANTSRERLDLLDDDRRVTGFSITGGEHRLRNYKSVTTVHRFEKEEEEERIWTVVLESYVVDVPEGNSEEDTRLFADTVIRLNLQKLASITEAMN"}
{"Change": "D153M", "relative binding score [%]": 42.2}
{"Change": "S80N", "relative binding score [%]": 78.3}
{"Change": "N22P", "relative binding score [%]": 101}
{"Change": "N177L", "relative binding score [%]": 88.9}
{"Change": "A84C", "relative binding score [%]": 88.6}
{"Change": "V76C", "relative binding score [%]": 104}
{"Change": "R90S", "relative binding score [%]": 91}
{"Change": "V62W", "relative binding score [%]": 83.5}
{"Change": "R69I", "relative binding score [%]": 99.8}
{"Change": "K126A", "relative binding score [%]": 113}
{"Change": "V76W", "relative binding score [%]": -9.14}
{"Change": "D97H", "relative binding score [%]": 116}
{"Change": "S42F", "relative binding score [%]": 83.4}
{"Change": "S11T", "relative binding score [%]": 102}
{"Change": "R74E", "relative binding score [%]": -12.2}
{"Change": "I172S", "relative binding score [%]": 82.4}
{"Change": "V76G", "relative binding score [%]": -6.46}
{"Change": "R90P", "relative binding score [%]": 2.36}
{"Change": "E89Q", "relative binding score [%]": 40.7}
{"data": "Set 5", "target": "Sal-like protein 4, full length isoform B (SALL4, Homo sapiens, UniProt Q9UJQ4-2, residues 1-616)", "technique": "universal PBM", "molecule type": "double-stranded DNA, one strand shown", "medium": "in vitro", "concentration": "not given", "setting": "8-mer, flanks averaged, mean of replicates", "direction": "higher = stronger binding"}
{"Sequence": "ATGCTAAG", "E-score": 0.0717}
{"Sequence": "AAAGTCAG", "E-score": -0.0104}
{"Sequence": "CCCTGACC", "E-score": -0.287}
{"Sequence": "AACTGATT", "E-score": 0.0952}
{"Sequence": "ACCGAAAT", "E-score": 0.0965}
{"Sequence": "CTCGCTGC", "E-score": -0.0947}
{"Sequence": "ACTGCTCC", "E-score": -0.231}
{"Sequence": "CTAATCGA", "E-score": -0.0439}
{"Sequence": "AGTTTTAA", "E-score": 0.228}
{"Sequence": "AACTTGCG", "E-score": -0.219}
{"Sequence": "GGGATAAA", "E-score": 0.154}
{"Sequence": "CACCATGA", "E-score": -0.128}
{"Sequence": "CTTGGCCA", "E-score": -0.179}
{"Sequence": "AATACTCG", "E-score": 0.106}
{"Sequence": "CGGGACAC", "E-score": -0.305}
{"Sequence": "AGCTTGGC", "E-score": -0.198}
{"Sequence": "AGCAAACG", "E-score": -0.139}
{"Sequence": "AGCTCCAG", "E-score": -0.298}
{"Sequence": "GTGACCGA", "E-score": -0.117}
{"Sequence": "ACTTCCCC", "E-score": -0.0993}
{"Sequence": "GAAGTTCC", "E-score": -0.269}
{"Sequence": "ACCAATTG", "E-score": 0.131}
{"Sequence": "CCCGAGCG", "E-score": -0.303}
{"Sequence": "AGAGGTCA", "E-score": -0.201}
{"Sequence": "CAACGCTA", "E-score": -0.144}
{"note": "For quick reference, copied from above (set 5):"}
{"Sequence": "AAAGTCAG", "E-score": -0.0104}
{"Sequence": "GAAGTTCC", "E-score": -0.269}
{"Sequence": "CTAATCGA", "E-score": -0.0439}
{"Sequence": "CACCATGA", "E-score": -0.128}
{"Sequence": "AGCAAACG", "E-score": -0.139}
{"Sequence": "AACTTGCG", "E-score": -0.219}
{"Sequence": "CCCGAGCG", "E-score": -0.303}
{"Sequence": "AGTTTTAA", "E-score": 0.228}
{"Sequence": "ACTGCTCC", "E-score": -0.231}
{"Sequence": "AGCTTGGC", "E-score": -0.198}
{"Sequence": "ACCAATTG", "E-score": 0.131}
